Assay results of several laboratories.
Lines come from different studies, so protocols differ. Values joined by “and” are separate records of one study, mostly repeats; a detail may differ. ± gives the spread as reported. In brackets after ≈: the same amount, converted by molar mass.
UniProt P35813, sequence (whole entry, looked up): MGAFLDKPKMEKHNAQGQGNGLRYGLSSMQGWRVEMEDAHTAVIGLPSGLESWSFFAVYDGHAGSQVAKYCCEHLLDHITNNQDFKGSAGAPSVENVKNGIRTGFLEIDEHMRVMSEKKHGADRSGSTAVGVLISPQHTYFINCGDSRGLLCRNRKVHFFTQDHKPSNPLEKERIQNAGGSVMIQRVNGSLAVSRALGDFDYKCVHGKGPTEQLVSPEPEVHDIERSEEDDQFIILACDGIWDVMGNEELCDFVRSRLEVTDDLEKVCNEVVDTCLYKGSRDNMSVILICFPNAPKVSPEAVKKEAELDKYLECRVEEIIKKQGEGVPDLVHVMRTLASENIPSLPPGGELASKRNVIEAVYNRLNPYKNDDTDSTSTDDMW
UniProt Q16531, sequence (whole entry, looked up): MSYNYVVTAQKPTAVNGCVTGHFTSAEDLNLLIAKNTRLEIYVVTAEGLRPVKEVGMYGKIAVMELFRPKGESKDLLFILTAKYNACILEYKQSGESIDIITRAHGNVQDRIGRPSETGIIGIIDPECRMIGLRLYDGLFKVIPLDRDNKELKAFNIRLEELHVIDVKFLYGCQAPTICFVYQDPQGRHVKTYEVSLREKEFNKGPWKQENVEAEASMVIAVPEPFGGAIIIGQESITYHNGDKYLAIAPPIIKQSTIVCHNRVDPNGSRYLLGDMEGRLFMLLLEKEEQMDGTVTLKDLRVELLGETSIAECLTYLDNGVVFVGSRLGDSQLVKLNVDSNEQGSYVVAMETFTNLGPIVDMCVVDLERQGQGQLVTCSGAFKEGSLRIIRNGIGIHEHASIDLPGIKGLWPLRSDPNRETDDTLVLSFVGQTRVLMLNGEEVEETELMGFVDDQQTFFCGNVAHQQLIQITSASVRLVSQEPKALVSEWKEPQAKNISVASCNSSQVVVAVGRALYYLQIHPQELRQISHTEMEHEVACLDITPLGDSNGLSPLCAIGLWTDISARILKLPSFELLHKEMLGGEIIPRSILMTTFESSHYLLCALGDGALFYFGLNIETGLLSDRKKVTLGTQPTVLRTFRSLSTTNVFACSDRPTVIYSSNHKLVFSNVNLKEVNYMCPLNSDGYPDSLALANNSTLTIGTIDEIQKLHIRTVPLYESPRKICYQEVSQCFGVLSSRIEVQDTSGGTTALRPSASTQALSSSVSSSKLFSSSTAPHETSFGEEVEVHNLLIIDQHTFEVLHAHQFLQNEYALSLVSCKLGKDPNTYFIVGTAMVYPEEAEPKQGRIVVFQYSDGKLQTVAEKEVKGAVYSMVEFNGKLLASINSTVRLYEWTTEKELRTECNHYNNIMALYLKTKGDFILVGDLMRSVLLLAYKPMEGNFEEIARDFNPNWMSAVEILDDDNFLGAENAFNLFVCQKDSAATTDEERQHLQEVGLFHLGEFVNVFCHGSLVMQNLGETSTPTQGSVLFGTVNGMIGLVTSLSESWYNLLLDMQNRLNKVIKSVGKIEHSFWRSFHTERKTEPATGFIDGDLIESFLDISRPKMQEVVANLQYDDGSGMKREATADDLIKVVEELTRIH
UniProt Q4J6C6, sequence (whole entry, looked up): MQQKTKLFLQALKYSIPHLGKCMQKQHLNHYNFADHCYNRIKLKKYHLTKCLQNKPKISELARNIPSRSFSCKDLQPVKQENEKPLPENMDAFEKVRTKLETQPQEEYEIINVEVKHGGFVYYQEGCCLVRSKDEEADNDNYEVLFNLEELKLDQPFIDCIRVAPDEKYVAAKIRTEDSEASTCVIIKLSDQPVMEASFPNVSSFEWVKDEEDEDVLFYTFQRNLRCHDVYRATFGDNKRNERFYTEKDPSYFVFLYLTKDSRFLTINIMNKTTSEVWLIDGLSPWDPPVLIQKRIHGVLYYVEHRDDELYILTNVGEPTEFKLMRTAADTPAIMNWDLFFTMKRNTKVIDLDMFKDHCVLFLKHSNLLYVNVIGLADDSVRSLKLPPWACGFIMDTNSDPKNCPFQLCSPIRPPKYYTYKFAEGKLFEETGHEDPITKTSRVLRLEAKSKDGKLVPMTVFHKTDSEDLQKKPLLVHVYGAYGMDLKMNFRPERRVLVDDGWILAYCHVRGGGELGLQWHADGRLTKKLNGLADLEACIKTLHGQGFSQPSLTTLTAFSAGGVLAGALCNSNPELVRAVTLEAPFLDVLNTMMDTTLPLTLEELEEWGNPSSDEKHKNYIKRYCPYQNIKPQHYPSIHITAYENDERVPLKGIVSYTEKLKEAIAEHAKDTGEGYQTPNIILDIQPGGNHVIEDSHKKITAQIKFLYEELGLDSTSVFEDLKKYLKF

With `C[C@H]1CN(c2n[nH]c3nc(N[C@H]4CC[C@H](NS(=O)(=O)CCC(F)(F)F)CC4)ncc23)CCO1` the relative abundance was 1.38 (DDB1 (Homo sapiens, UniProt Q16531); inhibitor, Kinobeads competition profiling; 0.8 µM; baseline: vehicle).
`CC[C@H](C)[C@@H]1NC(=O)[C@@H]2CCCN2C(=O)[C@H](CC(C)C)NC(=O)[C@H](CC(C)C)NC(=O)CNC(=O)[C@@H](NC(=O)[C@@H](NC(=O)[C@H](CC(=O)O)NC(=O)CNC(=O)[C@@H](NC(=O)[C@H](C)NC(=O)CNC(=O)[C@H](CCCCN)NC(=O)[C@H](CC(C)C)NC(=O)[C@H](CC(C)C)NC(=O)[C@H](CCCCN)NC(=O)CNC(=O)[C@@H](NC(=O)[C@@H](N)CC(C)C)C(C)C)C(C)C)C(C)C)CSSC[C@@H](C(=O)O)NC1=O`: “log2 fold change” -2.77 (RNA-seq, refers to: Csf2rb mRNA; mouse traumatic brain injury, frontal cortex and hippocampus; dose not given; baseline: TBI plus compound vs TBI).
`FC(F)(F)c1ccc2c(c1)[C@@H]1CNC[C@H]2C1` has an ethanol intake of 3 ± 0.2 g/kg (two-bottle choice; Wistar rat, intermittent 20% ethanol access; subcutaneous, 1 mg/kg, 6 h).
`CO[C@H]1C[C@@H]2CC[C@@H](C)[C@@](O)(O2)C(=O)C(=O)N2CCCC[C@H]2C(=O)O[C@H]([C@H](C)C[C@@H]2CC[C@@H](OC(=O)NCCOCCOCCOCCOCCOCCOCCOCCOCCC(=O)N3CCc4cc(Cn5nc(-c6ccc7oc(N)nc7c6)c6c(N)ncnc65)ccc4C3)[C@H](OC)C2)C[C@@H](O)[C@H](C)/C=C(\C)[C@@H](O)[C@@H](OC)C(=O)[C@H](C)C[C@H](C)/C=C/C=C/C=C/1C`: “any TEAE incidence” 100% (phase 1 dose escalation; advanced solid tumour patients; intravenous, 12 mg weekly, any grade).
`C[C@]1(CO)Cc2ncn(-c3ccc(C#N)c(Cl)c3)c2C(=O)O1`: “urinary sodium excretion 0-24 h” 159 mmol (Chinese subjects; 80 mg single dose).
For `CCCCC1(CCCC)CN(c2ccccc2)c2cc(SC)c(OCC(=O)N[C@@H](C(=O)NCC(=O)O)c3ccccc3)cc2S(=O)(=O)C1`, the serum HDL-C was 47 mg/dL (refers to: HDL cholesterol; human, serum; 10 mg once daily, day 13).
Under “IFN-γ+ CD8+ T cells”, `CC[C@@H](C)[C@@H](NC(=O)[C@@H](Cc1ccc(O)cc1)NC(=O)[C@H]1CCCN1C(=O)[C@@H](CCCNC(=N)N)NC(=O)[C@H](N)Cc1c[nH]cn1)C(=O)N[C@H](C)C(=O)N[C@H](Cc1c[nH]cn1)C(=O)N[C@H](CCCNC(=N)N)C(=O)N[C@H](CCCCNC(=O)c1cccc(S(=O)(=O)F)c1)C(=O)N[C@H](Cc1ccc(O)cc1)C(=O)N[C@H](CO)C(=O)N[C@H](Cc1ccccc1)C(N)=O` is recorded as 5.27% and 5.63% and 7.05% and 6.16% (ex vivo flow cytometry; MC-38 tumour-bearing mice, spleen; 1.3 mg/kg; baseline: CD8+ T cells).
The median ratio of `O=C(c1ccc(Cl)cc1)N1CCN2C(=O)N(OC(=O)N3CCOc4ccccc43)C(=O)C2C1` (stereo not drawn) is reported as 1.09 (PREPL (Homo sapiens, UniProt Q4J6C6); enzyme activity, inhibitor, MS-based ABPP; SW-620 in situ; 10 µM, 2 h, 37 °C; baseline: compound over DMSO, lower = stronger inhibition).
With `C[C@@H](O)[C@@H](CO)NC(=O)[C@@H](CCCNC(=N)N)NC(=O)[C@@H]1CCCN1C(=O)[C@@H]1CSSC[C@H](NC(=O)[C@H](Cc2ccccc2)NC(=O)CN2CCN(CC(=O)O)CCN(CC(=O)O)CCN(CC(=O)O)CC2)C(=O)N[C@@H](Cc2ccc(O)cc2)C(=O)N[C@@H](Cc2ccccc2)C(=O)N[C@@H](CCC(N)=O)C(=O)N[C@@H](CC(N)=O)C(=O)N1` [gallium-68 labelled] the tissue uptake was 0.2 %ID/g (Wistar rat, healthy, Pituitary gland; intravenous, 8 MBq, 120 min, mean).
Under “grade 3 Proteinuria”, `COc1cc2c(Oc3ccc4[nH]c(C)cc4c3F)ccnc2cc1OCC1(N)CC1` is recorded as 0% (paediatric recurrent refractory sarcoma; 12 mg).
`O=S(=O)([O-])C(F)(F)C(F)(F)C(F)(F)C(F)(F)C(F)(F)C(F)(F)C(F)(F)C(F)(F)F.[K+]` — result for protein expression: “increased” (Western blot, refers to: Cyp2e1; EtOH-fed mice, liver; dose not given; baseline: efavirenz).
`Cc1nc(Nc2ccc(CC(=O)O)cc2)nc(Nc2ccc(F)c(C(F)(F)F)c2)c1C` — result for mRNA level: “decreased” (refers to: PPARα; C57BL/6J mice, high-fat diet, liver; intraperitoneal, 0.3 mg/kg daily, 60% fat diet 12 weeks, dosed last four; baseline: vehicle).
`COc1cc(Nc2ncc(F)c(Nc3ccc4c(n3)NC(=O)C(C)(C)O4)n2)cc(OC)c1OC` has an IC50 of greater than 10 µM (PPM1A (Homo sapiens, UniProt P35813); phosphatase activity, inhibitor).
The LC50 of `COc1cc(CCC[P+](c2ccccc2)(c2ccccc2)c2ccccc2)c(OC)c2c1OCO2.[I-]` is reported as greater than -4 log M (MOLT-4; SRB).
`CNCC(=O)c1ccccc1` gave an Emax of 164 % baseline (ICSS total stimulations; rat).
With `CC[C@H](C)[C@H](NC(=O)[C@H](C)NC(=O)[C@H](CCCCN)NC(=O)[C@H](CC(C)C)NC(=O)[C@H](C)NC(=O)[C@@H](NC(=O)[C@H](Cc1c[nH]cn1)NC(=O)[C@H](CC(C)C)NC(=O)[C@@H](NC(=O)[C@@H](NC(=O)[C@H](CCCCN)NC(=O)[C@H](C)NC(=O)[C@H](C)NC(=O)[C@H](CO)NC(=O)[C@H](CCCCN)NC(=O)[C@H](Cc1ccccc1)NC(=O)[C@@H](NC(=O)[C@H](CCCCN)NC(=O)[C@H](CC(C)C)NC(=O)[C@H](Cc1ccccc1)NC(=O)[C@H](CO)NC(=O)[C@H](CCCCN)NC(=O)[C@H](Cc1c[nH]c2ccccc12)NC(=O)[C@H](CCCCN)NC(C)=O)[C@@H](C)O)[C@@H](C)O)C(C)C)[C@@H](C)O)C(=O)N[C@@H](CO)C(=O)N[C@@H](CO)C(N)=O` the MIC90 was 8 µg/mL (≈ 2.73 µM) (Acinetobacter baumannii; IPM-S; 33 strains).
Under fEPSP slope, `CC(C)(C)CC(C)(C)c1ccc(OCCOCC[N+](C)(C)Cc2ccccc2)cc1` is recorded as “increased” (C57BL/6J mouse, male, hippocampal slices, Schaffer collateral-CA1; 10 nM, 60 min; baseline: vehicle).
`CCCCC1CNC2CCc3ccc(OC)cc3C12.Cl` (racemic): “differentially expressed genes count” 316 (RNA sequencing; SAMP8 mice, hippocampus; intracerebroventricular, 1.0 µg/µL, 24 h; baseline: vehicle).
`CN1CCN(S(=O)(=O)c2cc([N+](=O)[O-])ccc2N(CCOS(C)(=O)=O)CCOS(C)(=O)=O)CC1` — result for “EFS delay (T-C)”: greater than 364 days (NSG mice, sample DA PDX; intraperitoneal, 25 mg/kg weekly x3; baseline: vehicle).
`OC1CCN(c2ncnc3[nH]cc(-c4cccc(Cl)c4)c23)CC1`: phospho-MOB1 level “decreased” (Western blot, refers to: MOB1 Thr35 phosphorylation; C57BL/6 mice, liver; intraperitoneal, 20 mg/kg, 1 h; baseline: vehicle).
Under “normalized enrichment score”, `CS(=O)(=O)c1ccc(-c2nnc(/C=C/c3nnc(-c4ccc(C#N)cc4)o3)n2-c2ccccc2Cl)nc1` is recorded as 2.01 (RNA-seq GSEA, refers to: HALLMARK_FATTY_ACID_METABOLISM; organoids, small intestinal, Apc Q1405X, mouse; dose not given, 3 days, knockout organoids; baseline: DMSO, direction not given).
For `Cc1cn(-c2cc(NC(=O)c3ccc(C)c(Nc4nccc(-c5cccnc5)n4)c3)cc(C(F)(F)F)c2)cn1`, the MMSE score was 17.2 ± 4.6 (Alzheimer's disease patients; 150 mg, 6 months, group mean; direction not given).
`C[C@H]1O[C@@H](O[C@H]2CC[C@@]3(C)[C@@H](CC[C@]4(C)[C@@H]3C=C[C@]35OC[C@@]6(CCC(C)(C)C[C@H]63)[C@@H](O)C[C@]54C)[C@]2(C)CO)[C@H](O)[C@@H](O[C@@H]2O[C@H](CO)[C@@H](O)[C@H](O)[C@H]2O)[C@H]1O` gave a mRNA level of 2.75 and 1.72 and 1.76 and 2.4 (refers to: PGC-1α; chronic-plus-binge ethanol-fed mice, AAV8-TBG-Null, liver; dose not given, high dose, unit not given; baseline: AAV8-TBG-Null ethanol group).
For `CC[C@H](C)[C@H](NC(=O)[C@H](Cc1ccccc1)NC(=O)[C@H](CCC(=O)O)NC(=O)[C@H](CCCNC(=N)N)NC(=O)[C@H](C)NC(=O)[C@H](C)NC(=O)[C@H](CCC(N)=O)NC(=O)[C@H](CCC(=O)O)NC(=O)[C@H](CCC(=O)O)NC(=O)[C@H](CC(C)C)NC(=O)[C@H](Cc1ccc(O)cc1)NC(=O)[C@H](CO)NC(=O)[C@H](CO)NC(=O)[C@@H](NC(=O)[C@H](CC(=O)O)NC(=O)[C@H](CO)NC(=O)[C@@H](NC(=O)[C@H](Cc1ccccc1)NC(=O)[C@@H](NC(=O)CNC(=O)[C@H](CCC(=O)O)NC(=O)[C@H](C)NC(=O)CCc1c[nH]cn1)[C@@H](C)O)[C@@H](C)O)C(C)C)C(=O)N[C@@H](C)C(=O)N[C@@H](Cc1c[nH]c2ccccc12)C(=O)N[C@@H](CC(C)C)C(=O)N[C@H](C(=O)N[C@@H](CCCNC(=N)N)C(=O)NCC(=O)N[C@@H](CCCNC(=N)N)C(=O)N[C@@H](CCCCNC(=O)COCCOCCNC(=O)COCCOCCNC(=O)CC[C@H](NC(=O)CCCCCCCCCCCCCCCCC(=O)O)C(=O)O)C(=O)NCC(=O)NCC(=O)N[C@@H](CO)C(=O)N[C@@H](CCCCNc1c(NCCCCCN(O)C(=O)CCC(=O)NCCCCCN(O)C(=O)CCC(=O)NCCCCCN(O)C(C)=O)c(=O)c1=O)C(=O)O)C(C)C` [zirconium-89 labelled], the tissue uptake was 0.05 %ID/g (gamma counting; rat, stomach-duodenum content; intravenous, 3 nmol/kg, 72 h).
`CC(C)=CCC/C(C)=C/C=O` gave an IC50 of greater than 1000 µM (pH gradient; Escherichia coli inverted membrane vesicles).
For `CN1CC[C@@H](c2c(O)cc(O)c3c(=O)cc(-c4ccc(C(F)(F)F)cc4Cl)oc23)[C@@H]1CO`, “patients with adverse event” read 25% (refers to: Nausea; relapsed or refractory haematological malignancies; oral, dose not given, all arms).
`C[C@]12CC[C@H](O)C[C@H]1CC[C@@H]1[C@@H]2CC[C@]2(C)[C@@H](c3ccc(=O)oc3)CC[C@]12O` gave a tumour volume of 22.4 mm3 and 34.1 mm3 and 16.1 mm3 and 19.8 mm3 and 28 mm3 and 16.9 mm3 and 34 mm3 (female nude mouse LCC2 xenograft; 1.0 mg/kg, day 1, tamoxifen-resistant).
`NNc1ccccc1` has a normalised absorbance of 0.891 (hydrazine ligation kinetics, absorbance; concentration not given, 30 s, added: 2-formylphenylboronic acid).
`CC1=C(O)C(=O)C=C2C1=CC=C1[C@@]2(C)CC[C@@]2(C)[C@@H]3C[C@](C)(C(=O)O)CC[C@]3(C)CC[C@]12C` — result for liver histology: “decreased” (refers to: inflammation, fibrosis, lipid accumulation; rat, GAN diet-induced MASH, liver; dose not given, 3 weeks daily; baseline: vehicle).
With `COc1ccc2c(c1)CC[C@@H]1[C@@H]2CC[C@]2(C)[C@@H](NCCCCCCN3C(=O)C=CC3=O)CC[C@@H]12` the inhibition was 58% (calcium response, activation phase; N2a, mouse; 1 µM, added: ATP 300 µM).
